Measurements collected from several papers.
A part holds a random share of what one study measured. “And” joins repeats or separate records; there may be more than shown.
UniProt Q9UJQ4, sequence (whole entry, looked up): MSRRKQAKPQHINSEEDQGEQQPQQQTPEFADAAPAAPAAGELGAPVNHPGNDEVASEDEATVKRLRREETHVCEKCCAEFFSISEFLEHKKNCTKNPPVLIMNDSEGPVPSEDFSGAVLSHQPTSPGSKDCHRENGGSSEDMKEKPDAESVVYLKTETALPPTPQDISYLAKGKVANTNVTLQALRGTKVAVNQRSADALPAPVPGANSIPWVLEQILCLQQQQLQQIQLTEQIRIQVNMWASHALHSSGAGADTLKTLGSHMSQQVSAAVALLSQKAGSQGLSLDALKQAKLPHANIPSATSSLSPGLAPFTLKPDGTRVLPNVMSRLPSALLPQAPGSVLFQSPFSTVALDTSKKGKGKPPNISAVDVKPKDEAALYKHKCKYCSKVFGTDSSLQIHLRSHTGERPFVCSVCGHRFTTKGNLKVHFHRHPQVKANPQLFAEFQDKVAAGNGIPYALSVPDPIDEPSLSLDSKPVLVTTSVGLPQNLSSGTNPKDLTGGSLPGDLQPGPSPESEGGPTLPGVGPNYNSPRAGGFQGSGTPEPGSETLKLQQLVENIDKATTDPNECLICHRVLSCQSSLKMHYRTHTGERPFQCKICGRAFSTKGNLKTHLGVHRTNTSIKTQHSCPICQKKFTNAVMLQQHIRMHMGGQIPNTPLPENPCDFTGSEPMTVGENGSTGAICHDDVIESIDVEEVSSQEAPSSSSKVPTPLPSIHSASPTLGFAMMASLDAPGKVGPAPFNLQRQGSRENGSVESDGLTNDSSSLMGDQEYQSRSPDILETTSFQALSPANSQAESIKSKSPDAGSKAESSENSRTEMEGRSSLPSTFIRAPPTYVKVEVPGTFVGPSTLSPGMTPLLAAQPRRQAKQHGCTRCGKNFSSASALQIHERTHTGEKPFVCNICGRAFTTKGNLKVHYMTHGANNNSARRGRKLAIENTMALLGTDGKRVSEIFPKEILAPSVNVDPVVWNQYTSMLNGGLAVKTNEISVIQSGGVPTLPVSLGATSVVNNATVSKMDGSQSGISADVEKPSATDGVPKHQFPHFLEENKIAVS
UniProt P41143, sequence (whole entry, looked up): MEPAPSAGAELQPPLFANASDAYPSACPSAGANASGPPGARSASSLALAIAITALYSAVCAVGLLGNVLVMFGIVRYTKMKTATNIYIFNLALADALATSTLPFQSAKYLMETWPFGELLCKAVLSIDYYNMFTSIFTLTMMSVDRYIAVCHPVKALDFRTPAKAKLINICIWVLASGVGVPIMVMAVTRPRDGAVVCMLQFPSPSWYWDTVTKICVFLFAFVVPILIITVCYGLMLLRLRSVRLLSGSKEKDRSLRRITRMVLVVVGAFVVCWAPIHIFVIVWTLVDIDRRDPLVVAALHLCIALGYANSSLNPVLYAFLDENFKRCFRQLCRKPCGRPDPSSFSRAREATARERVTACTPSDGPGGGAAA

Block 1
Structure (SMILES): Cn1cc(-c2cccc(CN3CCC4(CC3)COc3c4ccc4c3CN([C@@H]3CCC(=O)NC3=O)C4=O)c2)cn1
Mode: degrader
Technique: HiBiT
Cells: HEK293
Measurement: remaining protein
Zinc finger protein Aiolos: Zinc finger protein Aiolos (Homo sapiens, UniProt Q9UKT9)
UniProt Q9UKT9, sequence (whole entry, looked up): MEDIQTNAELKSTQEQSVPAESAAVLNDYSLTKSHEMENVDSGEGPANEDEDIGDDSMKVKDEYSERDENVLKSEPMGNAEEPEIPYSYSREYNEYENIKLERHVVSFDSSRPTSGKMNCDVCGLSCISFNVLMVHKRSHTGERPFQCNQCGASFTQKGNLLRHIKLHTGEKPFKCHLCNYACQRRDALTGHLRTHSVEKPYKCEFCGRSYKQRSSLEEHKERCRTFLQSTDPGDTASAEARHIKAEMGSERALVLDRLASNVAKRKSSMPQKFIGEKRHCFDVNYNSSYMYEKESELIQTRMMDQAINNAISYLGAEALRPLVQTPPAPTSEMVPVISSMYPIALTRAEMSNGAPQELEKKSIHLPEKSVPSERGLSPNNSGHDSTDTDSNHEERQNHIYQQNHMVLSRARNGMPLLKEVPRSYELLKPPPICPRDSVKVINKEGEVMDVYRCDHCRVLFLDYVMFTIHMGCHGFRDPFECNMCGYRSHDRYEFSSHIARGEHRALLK
Zinc finger protein Aiolos; 4.572 nM: 101% and 105%
Sal-like protein 4 (SALL4, Homo sapiens, UniProt Q9UJQ4); 0.1694 nM: 107% and 105%
Zinc finger protein Aiolos; 123.5 nM: 95.2% and 96.8%

Block 2
Target: Sodium-dependent neutral amino acid transporter B(0)AT1 (SLC6A19, Homo sapiens, UniProt Q695T7)
UniProt Q695T7, sequence (whole entry, looked up): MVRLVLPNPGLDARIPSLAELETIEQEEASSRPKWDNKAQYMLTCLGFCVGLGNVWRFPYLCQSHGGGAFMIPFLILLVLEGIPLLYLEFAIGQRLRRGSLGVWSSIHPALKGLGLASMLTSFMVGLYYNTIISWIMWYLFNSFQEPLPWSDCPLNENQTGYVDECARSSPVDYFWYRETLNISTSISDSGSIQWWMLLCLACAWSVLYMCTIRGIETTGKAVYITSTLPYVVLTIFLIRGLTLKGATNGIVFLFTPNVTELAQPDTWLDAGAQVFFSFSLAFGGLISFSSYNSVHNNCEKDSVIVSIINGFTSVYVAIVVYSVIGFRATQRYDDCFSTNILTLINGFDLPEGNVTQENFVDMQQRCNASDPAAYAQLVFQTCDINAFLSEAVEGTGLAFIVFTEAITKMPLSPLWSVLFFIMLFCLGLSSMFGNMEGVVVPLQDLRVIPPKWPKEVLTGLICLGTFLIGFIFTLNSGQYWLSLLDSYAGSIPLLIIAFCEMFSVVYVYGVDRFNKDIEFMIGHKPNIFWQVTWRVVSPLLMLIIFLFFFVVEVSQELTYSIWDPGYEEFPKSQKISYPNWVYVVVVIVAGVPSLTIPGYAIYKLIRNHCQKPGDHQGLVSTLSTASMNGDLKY
Technique: FLIPR membrane potential
Cells: CHO-BC
Tested at: concentration not given
Baseline: 100 µM cinromide set to 0
Measurement: remaining activity
Cc1cc(OC(C)C(=O)NC(C)C)cc(C)c1Cl (racemic): 77.5%
CNC(=O)COc1cc(C)c(Cl)c(C)c1: 42%
CC(C)NC(=O)COc1ccc(Cl)cc1: 38.1%
Cc1cc(OCC(=O)OC(C)C)cc(C)c1Cl: 102%
Cc1cc(Cl)ccc1OCC(=O)NC(C)C: 81.6%
Cc1cc(OC(C)(C)C(=O)NC(C)C)cc(C)c1Cl: 128%
Cc1cc(OCC(=O)NC(C)(C)C)cc(C)c1Cl: 116%
CCC(C)NC(=O)COc1cc(C)c(Cl)c(C)c1 (racemic): 108%

Block 3
SMILES: COc1cc(C(=O)OCCCN2CCCN(CCCOC(=O)c3cc(OC)c(OC)c(OCc4ccc([N+](=O)[O-])cc4)c3)CC2)cc(OC)c1OC
Measurement: paw withdrawal threshold
von Frey test; mouse, CFA inflammatory pain; subcutaneous, 10 mg/kg, 3 h post-dose, second injection, day 3: 0.65 g and 0.4 g and 0.51 g and 0.29 g
von Frey test; mouse, CFA inflammatory pain; intravenous, dose not given, 1 h post-dose, third injection, day 5: 0.65 g and 0.75 g and 0.59 g and 0.51 g
mechanical pain, von Frey test; mouse, STZ diabetic neuropathy; intravenous, 30 mg/kg, 1 h post-dose, third injection: 0.44 g and 0.75 g and 1.56 g and 0.4 g and 0.59 g
mechanical pain, von Frey test; mouse, STZ diabetic neuropathy; intravenous, 30 mg/kg, 5 h post-dose, first injection, day 8: 0.1 g and 0.2 g and 0.44 g and 0.05 g and 0.36 g
von Frey test; mouse, CFA inflammatory pain; intraplantar, 10 µg, 3 h post-dose, day 3 after CFA: 0.98 g and 1.56 g and 1.3 g and 2.23 g and 1.16 g
mice, STZ diabetic neuropathy; intrathecal, 10 nmol, 24 h, together with: DPCPX 10 nmol, 30 min before: 0.09 g and 0.13 g and 0.05 g and 0.06 g and 0.23 g and 0.02 g
von Frey test; mouse, CFA inflammatory pain; subcutaneous, 10 mg/kg, 5 h post-dose, second injection, day 3: 0.13 g and 0.23 g and 0.29 g and 0.32 g
mice, STZ diabetic neuropathy; intrathecal, 10 nmol, 1 h, together with: DPCPX 10 nmol, 30 min before: 0.75 g and 0.59 g and 0.65 g and 0.98 g

Mixed results
C=CCN1C(=O)C(O)(C(=O)O)Oc2cc(F)ccc21 (stereo not drawn)  inhibition (Glycine max; fresh weight; soil surface spray, 150 g ai/ha, 21 days, pre-emergence crop safety): 7.7% and 8.2% and 8.7%
N=C(N)NCCCCCCN1CCC23c4c5ccc(O)c4OC2c2nc4ccccc4cc2CC3(O)C1C5 (stereo not drawn)  EC50 (Delta-type opioid receptor, with GoB (OPRD1, Homo sapiens, UniProt P41143); human cells): 8.14 nM

Some of these lines once more (block 2):
Cc1cc(Cl)ccc1OCC(=O)NC(C)C: 81.6%
Cc1cc(OC(C)(C)C(=O)NC(C)C)cc(C)c1Cl: 128%
Cc1cc(OCC(=O)NC(C)(C)C)cc(C)c1Cl: 116%
